Measurements gathered from unrelated publications.
Parts stem from different laboratories: compare values within a part only. Several values in a cell are separate wells, animals, samples, runs or records.

Sample 1 — time: 6 days
Compound: Cc1ncsc1-c1ccc(C(CO)NC(=O)C2CC(O)CN2C(=O)C(C(C)C)n2cc(-c3ccc(COc4c(-c5c(C)c(F)cc6[nH]ncc56)c(C5CC5)cc5c(N6CC7CC6CN7)nc(OC6CCOCC6)nc45)cc3)nn2)cc1 (stereo not drawn)
The viability was 85.1% and 95.9% and 99.9% and 116% (SK-CO-1; cell growth or viability, ATP luminescence; 10 nM).
T24; cell growth or viability, ATP luminescence; 1 µM — viability: 98.9% and 97.4% and 98.7% and 94.9%.
NCI-H358; cell growth or viability, ATP luminescence; 100 pM — viability: 95% and 101% and 92.6% and 99.4%.
For A-375; cell growth or viability, ATP luminescence; 10 µM: viability read 89.1% and 93.6% and 94.3% and 87.9%.
AsPC-1; CellTiter-Glo; 300 nM; reference: DMSO — viability: 5.65% and 5.84% and 4.75%.
The viability was 36.2% and 40.1% and 42.9% and 38.3% (PaTu 8902; cell growth or viability, ATP luminescence; 1 µM).
The viability was 86.1% and 120% and 112% and 119% (HT-29; cell growth or viability, ATP luminescence; 0.1 µM).
The viability was 94.2% and 98.8% and 92.6% and 92.5% (NCI-H358; cell growth or viability, ATP luminescence; 10 nM).
For SW-403; cell growth or viability, ATP luminescence; 10 µM: viability read 2.04% and 1.42% and 1.55% and 1.4%.
It gave 113% and 102% and 101% and 106% for viability (SK-CO-1; cell growth or viability, ATP luminescence; 30 nM).
For AsPC-1; CellTiter-Glo; 1 nM; reference: DMSO: viability read 101% and 92.6% and 105%.

Sample 2 — cell line: U-87 MG; concentration: concentration not given; reference: DMSO
Structure (SMILES): CCN1/C(=C/C=C2\CCCC(/C=C/C3=[N+](CC)c4ccccc4C3(C)C)=C2NCCCCCCCCN2CCC(Nc3nc4ccccc4n3Cc3ccc(F)cc3)CC2)C(C)(C)c2ccccc21
measured: CAV1 mRNA — “log2 fold change”: -1.79.
For measured: TMPO mRNA: “log2 fold change” read -1.79.
For measured: BPIFC mRNA: “log2 fold change” read 6.4.
It gave 0.806 for “log2 fold change” (measured: GPATCH2 mRNA).
measured: ARHGEF40 mRNA — “log2 fold change”: -1.25.
measured: SPC25 mRNA — “log2 fold change”: -2.02.
It gave -1.03 for “log2 fold change” (measured: CCDC80 mRNA).
For measured: XBP1 mRNA: “log2 fold change” read 1.11.
The “log2 fold change” was -1.13 (measured: STEAP1B mRNA).
measured: CAD mRNA — “log2 fold change”: -0.835.
The “log2 fold change” was -1.21 (measured: NTHL1 mRNA).
The “log2 fold change” was -1.75 (measured: ADAM8 mRNA).
The “log2 fold change” was -1.6 (measured: CNPY4 mRNA).
The “log2 fold change” was -1.71 (measured: CAVIN1 mRNA).
For measured: CDKN3 mRNA: “log2 fold change” read -1.61.
measured: PCDH18 mRNA — “log2 fold change”: -2.51.

Sample 3 — organism: Arabidopsis thaliana; strain: Col-0; concentration: 12.5 µg/mL; setting: seed germination
For `COc1ccc2c(c1)OC(O)(C(=O)O)C(=O)N2Cc1ccccc1` (stereo not drawn), the root length was 1.17 cm.
For `O=C(O)C1(O)Oc2cc(Cl)ccc2N(Cc2ccccc2)C1=O` (stereo not drawn), the root length was 1.21 cm.
For `O=C(O)C1Oc2cc(F)ccc2N(Cc2ccccc2)C1=O` (stereo not drawn), the root length was 1.04 cm.
With `CC(C)(C)c1ccc(Oc2ccc3c(c2)OC(O)(C(=O)O)C(=O)N3Cc2ccccc2)cc1` (stereo not drawn) the root length was 0.731 cm.

Sample 4 — observed: thermal unfolding; technique: differential scanning fluorimetry; concentration: 5.5 µM; reading: higher = more unfolded
SMILES: C[C@@H]1CN(c2ccc(-c3cc(C(=O)NCCOCCOCCOCCOCCNC(=O)/C=C/c4[nH]cc(C(=O)N[C@@H](CC(N)=O)c5ccc(F)c(Cl)c5)c4-c4ccc(Cl)cc4F)ccc3F)cc2NC(=O)c2c[nH]c(=O)cc2C(F)(F)F)C[C@H](C)N1C
WDR5: WD repeat-containing protein 5 (WDR5, Homo sapiens, UniProt P61964)
DCAF1: DDB1- and CUL4-associated factor 1 (DCAF1, Homo sapiens, UniProt Q9Y4B6)
Sequence of UniProt Q9Y4B6 (whole entry, looked up): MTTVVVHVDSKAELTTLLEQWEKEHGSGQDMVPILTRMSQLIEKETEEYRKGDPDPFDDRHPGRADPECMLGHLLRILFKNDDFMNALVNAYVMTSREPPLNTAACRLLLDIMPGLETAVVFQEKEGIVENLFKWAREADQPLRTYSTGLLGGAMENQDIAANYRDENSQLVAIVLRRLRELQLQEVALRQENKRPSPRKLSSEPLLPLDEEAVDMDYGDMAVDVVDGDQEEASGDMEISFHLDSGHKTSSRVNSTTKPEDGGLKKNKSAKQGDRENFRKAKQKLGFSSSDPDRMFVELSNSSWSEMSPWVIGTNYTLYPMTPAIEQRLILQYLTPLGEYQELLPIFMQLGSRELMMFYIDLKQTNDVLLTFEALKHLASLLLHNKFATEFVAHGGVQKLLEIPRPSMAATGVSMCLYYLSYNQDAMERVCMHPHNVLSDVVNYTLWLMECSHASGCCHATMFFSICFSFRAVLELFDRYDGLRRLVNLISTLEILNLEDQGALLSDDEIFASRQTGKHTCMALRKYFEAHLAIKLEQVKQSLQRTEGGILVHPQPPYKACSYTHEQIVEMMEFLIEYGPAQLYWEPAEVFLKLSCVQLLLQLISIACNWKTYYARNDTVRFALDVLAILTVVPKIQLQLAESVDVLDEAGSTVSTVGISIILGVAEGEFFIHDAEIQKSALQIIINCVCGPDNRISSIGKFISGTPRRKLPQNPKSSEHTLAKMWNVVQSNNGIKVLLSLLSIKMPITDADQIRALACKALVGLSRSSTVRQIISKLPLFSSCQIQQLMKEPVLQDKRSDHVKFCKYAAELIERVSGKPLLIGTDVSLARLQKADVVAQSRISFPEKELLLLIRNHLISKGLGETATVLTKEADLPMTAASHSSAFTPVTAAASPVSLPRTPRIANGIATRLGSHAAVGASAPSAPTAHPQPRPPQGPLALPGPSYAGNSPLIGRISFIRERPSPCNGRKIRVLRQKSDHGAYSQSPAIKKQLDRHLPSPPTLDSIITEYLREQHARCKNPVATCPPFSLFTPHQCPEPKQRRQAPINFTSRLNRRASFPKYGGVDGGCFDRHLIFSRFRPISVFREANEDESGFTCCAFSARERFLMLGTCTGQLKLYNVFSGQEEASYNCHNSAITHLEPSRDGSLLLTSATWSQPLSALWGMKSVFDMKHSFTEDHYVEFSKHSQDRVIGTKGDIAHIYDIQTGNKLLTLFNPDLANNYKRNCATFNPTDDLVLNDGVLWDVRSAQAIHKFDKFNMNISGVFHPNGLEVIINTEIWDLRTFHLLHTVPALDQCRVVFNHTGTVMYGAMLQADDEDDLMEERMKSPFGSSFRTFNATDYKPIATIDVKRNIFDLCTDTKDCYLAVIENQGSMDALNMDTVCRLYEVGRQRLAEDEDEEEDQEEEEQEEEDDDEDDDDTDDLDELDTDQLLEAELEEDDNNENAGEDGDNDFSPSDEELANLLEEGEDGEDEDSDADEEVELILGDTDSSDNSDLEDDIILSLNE
For WDR5; 31.2 °C: “SYPRO Orange fluorescence” read 12800 a.u.
It gave 58100 a.u. for “SYPRO Orange fluorescence” (DCAF1; 68.01 °C).
For WDR5; 39.4 °C: “SYPRO Orange fluorescence” read 14000 a.u.
DCAF1; 39.4 °C — “SYPRO Orange fluorescence”: 11400 a.u.
The “SYPRO Orange fluorescence” was 29600 a.u. (DCAF1; 57.61 °C).
It gave 16800 a.u. for “SYPRO Orange fluorescence” (WDR5; 55.81 °C).
It gave 16800 a.u. for “SYPRO Orange fluorescence” (WDR5; 52.81 °C).
For WDR5; 53.41 °C: “SYPRO Orange fluorescence” read 16800 a.u.
DCAF1; 56.01 °C — “SYPRO Orange fluorescence”: 24000 a.u.
For DCAF1; 55.21 °C: “SYPRO Orange fluorescence” read 21900 a.u.
It gave 48100 a.u. for “SYPRO Orange fluorescence” (WDR5; 92.41 °C).
